Measurements of several laboratories.
Each numbered part is a random draw from the data of one study; scales do not carry over between parts. Substitutions count along the parent as printed.

Study 1 — method: protein-binding microarray; form: double-stranded DNA, one strand shown; sample: in vitro; tested at: not given; direction: higher = stronger binding
Target: Max dimerization protein 1, bHLH-zipper, MAX partner unstated (MXD1, Homo sapiens, UniProt Q05195, residues 56-136)
Setting: k-mer, scored over probes, only values ≥0.25
Residues (chain): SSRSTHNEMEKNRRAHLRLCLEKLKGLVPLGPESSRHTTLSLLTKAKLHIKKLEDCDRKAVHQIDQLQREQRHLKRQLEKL
Oligonucleotide	E-score
CATACACG	0.331
ACACGTTC	0.345
CATATGGG	0.345
GGGGGCAA	0.274
CTCCCCCC	0.286
AGGCATGG	0.425
GCGTGTCA	0.388
GCATGACA	0.324
CACATGGA	0.44
ACGTGTGC	0.422
ACGTGCTA	0.398
GGGGGGGA	0.344
GATCACGC	0.276
GGGCGTGA	0.295

Study 2 — method: protein binding microarray; form: double-stranded DNA, one strand shown; sample: in vitro; tested at: not given; baseline: not given; direction: higher = stronger binding
Target: Histone acetyltransferase KAT6A, winged helix 2, GST fusion (KAT6A, Homo sapiens, UniProt Q92794, residues 85-181)
Setting: 8-mer, flanks averaged, mean of 2 arrays, mostly near background
Target sequence (chain): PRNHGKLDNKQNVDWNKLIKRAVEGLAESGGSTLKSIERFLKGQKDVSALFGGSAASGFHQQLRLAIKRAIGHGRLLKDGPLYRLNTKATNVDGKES
Oligonucleotide	E-score
AAGGTCGG	0.0638
AATAGTGT	-0.0223
CTGACCTA	-0.0543
TGCACGAA	0.0536
AGGCACAT	-0.0645
TATTCTAA	0.0662
CTCAAGCC	0.0476
AGACGCCT	-0.155
AGGGCGTA	-0.0507
AGTTCACC	0.0926
ACCTATTG	-0.221
ATGCTCTA	0.0114
CAGTTGCC	0.0813
AATAATGA	-0.0607
CGTCCAAG	-0.091
CACCCCTG	-0.11
TAGCATGA	0.0344

Study 3 — method: RNA Bind-n-Seq; form: RNA; sample: in vitro; tested at: 200 nM; setting: whole 134-nt RNA, ends assumed; added: 150 mM LiCl; baseline: input library; direction: higher = stronger binding; library: 7-deaza-guanosine replaces G
Target: Ras GTPase-activating protein-binding protein 1, full length (G3BP1, Homo sapiens, UniProt Q13283)
Sequence of UniProt Q13283 (whole entry, looked up): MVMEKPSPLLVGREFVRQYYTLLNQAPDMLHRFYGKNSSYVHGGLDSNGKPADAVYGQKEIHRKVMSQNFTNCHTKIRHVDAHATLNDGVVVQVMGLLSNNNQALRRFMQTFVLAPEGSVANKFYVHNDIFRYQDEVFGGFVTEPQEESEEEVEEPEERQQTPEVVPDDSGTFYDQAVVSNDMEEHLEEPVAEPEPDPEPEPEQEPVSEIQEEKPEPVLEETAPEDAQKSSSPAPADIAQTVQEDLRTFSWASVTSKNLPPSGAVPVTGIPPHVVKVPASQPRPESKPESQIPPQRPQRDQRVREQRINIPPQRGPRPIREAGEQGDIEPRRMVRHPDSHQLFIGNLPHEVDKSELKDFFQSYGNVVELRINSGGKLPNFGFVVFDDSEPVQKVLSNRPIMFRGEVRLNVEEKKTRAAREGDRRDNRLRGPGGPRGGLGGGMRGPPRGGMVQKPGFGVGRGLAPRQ
Oligonucleotide	log2 enrichment
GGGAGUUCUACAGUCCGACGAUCCCUGUGCUACACAUCGUAUGUACCGAAUCGGGGUUUUUGGGGAAAAAGGGGAAAAAGGGGAAAGUAUUAUGUUACGCCGUUCGGAUCUGCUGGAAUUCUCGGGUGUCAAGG	0.221
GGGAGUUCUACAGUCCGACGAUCCAAGUCCUGUGCUACACAUCGUAUGUACCGAAUCGGGUUUGGGGUUUGGUUUGGGAAAGUAUUAUGUUACGCCGUUCGGAUCUGCACUUCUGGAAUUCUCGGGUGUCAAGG	-1.03
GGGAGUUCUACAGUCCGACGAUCUCCUGUGCUACACAUCGUAUGUACCGAAUCGGGAAAGGGAAAAAAAGGGUUUUUUUGGGAAAGUAUUAUGUUACGCCGUUCGGAUCUGCAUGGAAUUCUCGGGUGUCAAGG	-0.31
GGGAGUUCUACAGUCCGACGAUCCACAGACAACACGCACCCACACAGACACAGAGGGAAGGGGUUGGGAUGGGGACAGGGUGCACAGCAGGGCGGGGUAGGUCCCCAGCCCCUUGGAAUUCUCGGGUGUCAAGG	1.27
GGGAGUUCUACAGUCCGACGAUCCUGUGCUACACAUCGUAUGUACCGAAUCGGGGAAAAAGGGGAAAAAGGGGAAAAAAAGGGGAAAGUAUUAUGUUACGCCGUUCGGAUCUGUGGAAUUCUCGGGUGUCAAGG	0.717
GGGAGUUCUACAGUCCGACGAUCGUCCUGUGCUACACAUCGUAUGUACCGAAUCGGGGCCCCCCGGCCCCCCGGCCCCCCGGAAAGUAUUAUGUUACGCCGUUCGGAUCUGCAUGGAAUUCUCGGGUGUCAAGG	-0.138
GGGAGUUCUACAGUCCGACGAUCUGGCCCUGGUGGCAUGCGGGGAGGAAGAGGUGGCCUCAUGGAUCGUGGUGGUCCCGGUGGAAUGUUCAGAGGUGGCCGAGGUGGAGACAGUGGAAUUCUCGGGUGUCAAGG	-0.33
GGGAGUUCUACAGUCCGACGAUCGCAGGAAAAAAAAACAAAUGGAAAUGCUUCGGAUAGUGGCAGGGGUGGGGGUUGCUAAGGAAAGGGUGGGAUGGGAGUGGGUAAAGAGUUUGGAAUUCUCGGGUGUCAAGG	0.118
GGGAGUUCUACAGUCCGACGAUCCUGUGCUACACAUCGUAUGUACCGAAUCGGGCCCCCCCGGGGCCCCCCCGGCCCCCCCGGGAAAGUAUUAUGUUACGCCGUUCGGAUCUGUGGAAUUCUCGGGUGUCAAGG	-0.643
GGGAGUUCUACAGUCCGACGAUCUCAAGUCCUGUGCUACACAUCGUAUGUACCGAAUCGUGUGUGUGUGUGUGUGUGUAAAGUAUUAUGUUACGCCGUUCGGAUCUGCACUUCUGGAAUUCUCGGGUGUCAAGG	-0.748
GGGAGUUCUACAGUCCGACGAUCUGGCCCUGGUGGCAUGCGGGGAGGAAGAGGUGGCCUCAUAGAUCGUGGUGGUCCCGGUGGAAUGUUCAGAGGUGGCCGUGGUGGAGACAGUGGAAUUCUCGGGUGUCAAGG	0.574

Study 4 — method: protein-binding microarray; form: double-stranded DNA, one strand shown; sample: in vitro; tested at: 940 nM top; setting: 60-bp whole probe; added: salmon DNA 0.4 mg/ml; baseline: random background probes; direction: higher = stronger binding; shared flanks, not repeated: GCCTAGCAC … GTCTTGATTCGCTTGACGCTGCTG
Target: Interferon regulatory factor 5, full length, phosphomimetic (IRF5, Homo sapiens, UniProt Q13568-2, residues 1-514, S451D/S453D/S456D/S462D)
Oligonucleotide	fitted relative affinity
TTAGATTTCGGGTTTCGGTTAGTGCTA	7.07 z-score
TCATTTTTTTTTTTTTTACTGTGCTAG	1.35 z-score
TCATTTTTGCTTACGATGCAGTGCTAG	0.128 z-score
TTAGGTTTTCTTTCCCTTTAGTGCTAG	1.54 z-score
TAAGGACTGGACACTGGGTTAGTGCTA	-0.287 z-score
GACGAACTGGGTATCGGGACGTGCTAG	0.842 z-score
TTAGGTAACCTTATCCTTTAGTGCTAG	-0.501 z-score
TGAGGTCTCGGACTGGGTTAGTGCTAG	0.189 z-score
GAACCTTCCCCTCTAGGTTCGTGCTAG	2.23 z-score
TCACCTCTCAACCATCCTACTGTGCTA	1.37 z-score
ACCACTTTCCATTTCTGTTTGTGCTAG	2 z-score
TTAGAACTGAGTCACGATTAGTGCTAG	-0.405 z-score
GACGAACTGAGTTTCGAGACGTGCTAG	3.85 z-score
GACGATTTCAGTATCGACACGTGCTAG	3.31 z-score
GACGGTTTCGGTATAGGGACGTGCTAG	13.3 z-score
TTTGGTATCGGGTTTCGGTTAGTGCTA	10.3 z-score
TTAGAACTGCGGTTTCGATTAGTGCTA	5.36 z-score
GAAGGACTGGGGTTTCGGGACGTGCTA	1.37 z-score
TTTGACATCTTCATCAACTAGTGCTAG	-0.033 z-score
ACCAGTTTTCTTTTCATTACGTGCTAG	2.2 z-score
TGGGCATTTTTTTTATCAATGTGCTAG	0.583 z-score
AGAGCTGTCCTTTGCAACAGGTGCTAG	-0.686 z-score
GACGGTTTCTTTTCCCTGACGTGCTAG	2.95 z-score
TTATATTTCAGACTGGATTAGTGCTAG	0.309 z-score
TCCATTTTCTGAATGCCTTGGTGCTAG	0.688 z-score

Study 5 — method: protein-binding microarray; form: double-stranded DNA, one strand shown; sample: in vitro; tested at: 0.8 µM; setting: whole 60-bp probe, no competitor; direction: higher = stronger binding
Target: Centromere-binding protein 1, full length, N-terminal tag (CBF1, Saccharomyces cerevisiae, UniProt P17106, residues 1-351)
Sequence of UniProt P17106 (whole entry, looked up): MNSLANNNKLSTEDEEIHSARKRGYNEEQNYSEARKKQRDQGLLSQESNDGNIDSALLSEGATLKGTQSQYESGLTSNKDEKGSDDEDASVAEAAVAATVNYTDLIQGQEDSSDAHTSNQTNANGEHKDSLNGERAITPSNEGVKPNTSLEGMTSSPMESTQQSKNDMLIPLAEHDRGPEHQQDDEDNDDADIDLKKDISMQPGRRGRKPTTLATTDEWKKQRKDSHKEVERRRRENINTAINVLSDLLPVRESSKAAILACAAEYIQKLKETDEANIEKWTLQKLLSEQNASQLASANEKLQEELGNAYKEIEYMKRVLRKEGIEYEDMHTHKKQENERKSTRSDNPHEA
Oligonucleotide	fluorescence intensity
GAATTAGATATTACAGACGTGAGGTATCTCTTCTAGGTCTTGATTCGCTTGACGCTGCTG	500 a.u.
CTACTTTCCGGTTACCACGCCTCGGGTTTCGCATTCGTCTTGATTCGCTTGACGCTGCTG	550 a.u.
CTACAAGTTTCGGGTCACCCCACACGTATTTGGTTCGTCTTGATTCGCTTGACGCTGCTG	644 a.u.
CTATTTGTAATTATAATCATGATGATAACGCTATTCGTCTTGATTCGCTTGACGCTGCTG	532 a.u.
CTAAAAACAAGACATCAGGCCCGCACGTTTCGCTTCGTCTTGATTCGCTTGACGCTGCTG	599 a.u.
CTATGAGAATAACGTCTCCTGATTAAGCAGGTGTTCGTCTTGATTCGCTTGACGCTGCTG	625 a.u.
GAAAAGGAAGGTGTTCACGTTGTGAACTTTAATTAGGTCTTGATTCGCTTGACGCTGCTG	575 a.u.
CCTAACTACTATAAATGTGTGACATAGCTTCGTACAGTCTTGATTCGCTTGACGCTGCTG	558 a.u.
CTACAAGCGAAATATCACGAATAATAATATAAATTCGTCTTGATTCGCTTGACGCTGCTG	501 a.u.
CCTAACTACTATAATTATCACATATAGCTTCGTACAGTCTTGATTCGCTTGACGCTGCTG	540 a.u.
CTAGCACGCTGCAGTTGCATCAGGGTTGTTTTATTCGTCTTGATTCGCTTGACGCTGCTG	504 a.u.
GAAACAGGGGAGAGACACGCAGATAAATACACATAGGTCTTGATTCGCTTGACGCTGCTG	517 a.u.
GAATATCAGTTACCCCGCGTGCCACCTTCAGTTTAGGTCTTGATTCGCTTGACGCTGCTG	553 a.u.

Study 6 — target: CCND3, cyclin fold, Cln2 fusion (human); method: yeast growth competition, sequencing; sample: yeast; setting: weak parent motif; baseline: not given; direction: higher = stronger binding
Starting sequence: CDC6 docking peptide (human); TLKGRRLVFDNQL; partner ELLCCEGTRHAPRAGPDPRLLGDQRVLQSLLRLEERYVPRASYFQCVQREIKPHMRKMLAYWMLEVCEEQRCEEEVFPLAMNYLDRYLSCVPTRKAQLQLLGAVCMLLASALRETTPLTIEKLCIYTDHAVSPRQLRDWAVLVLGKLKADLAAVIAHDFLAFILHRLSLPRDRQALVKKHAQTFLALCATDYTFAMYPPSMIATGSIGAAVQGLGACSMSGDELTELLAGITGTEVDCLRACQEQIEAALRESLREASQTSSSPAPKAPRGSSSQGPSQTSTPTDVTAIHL
Change	normalised enrichment score
N11D	0.139
L7N	0.126
F9C	0.0892
R5H	0.0941
R5K F9L	0.482
F9T	0.0909
L13N	0.0825
D10G	0.0885
L2H	0.0507
L13R	0.0964

A few entries again (study 4):
Oligonucleotide	fitted relative affinity
GACGGTTTCGGTATAGGGACGTGCTAG	13.3 z-score
TTTGGTATCGGGTTTCGGTTAGTGCTA	10.3 z-score
TTAGAACTGCGGTTTCGATTAGTGCTA	5.36 z-score
GAAGGACTGGGGTTTCGGGACGTGCTA	1.37 z-score
TTTGACATCTTCATCAACTAGTGCTAG	-0.033 z-score
ACCAGTTTTCTTTTCATTACGTGCTAG	2.2 z-score
TGGGCATTTTTTTTATCAATGTGCTAG	0.583 z-score
AGAGCTGTCCTTTGCAACAGGTGCTAG	-0.686 z-score
GACGGTTTCTTTTCCCTGACGTGCTAG	2.95 z-score
TTATATTTCAGACTGGATTAGTGCTAG	0.309 z-score
TCCATTTTCTGAATGCCTTGGTGCTAG	0.688 z-score
